# Experimental data collected from several papers.
# Protocols differ between the studies behind these lines. Numbers after ± are the reported error.
# Organism: herpes simplex virus 1
SMILES,test,test system,EC50 [µM]
O=c1[nH]c(=O)n([C@H]2C[C@H](O)[C@@H](CO)O2)cc1/C=C/Br,cytopathic effect,"HEL, KOS, TK-deficient, acyclovir-resistant",1.6 ± 0.6
C[C@H](Cn1cnc2c(=O)[nH]c(=O)[nH]c21)OCP(=O)(O)O,cytopathic effect,"HEL, KOS TK- acyclovir-resistant",> 100
Cc1ccc(S(=O)(=O)N2C(=O)CSC2c2cccc([N+](=O)[O-])c2)cc1 (stereo not drawn),viral cytopathicity,"HEL, KOS TK-deficient acyclovir-resistant",> 100
Nc1ncn(CC(O)C(F)(F)F)c(=O)n1 (stereo not drawn),cytopathic effect,"HEL, KOS, TK-deficient, acyclovir-resistant",> 446
Cc1ccc(S(=O)(=O)N2C(=O)CSC2c2ccccc2[N+](=O)[O-])cc1 (stereo not drawn),viral cytopathicity,"HEL, KOS",> 100
NC(=O)c1ncn([C@@H]2O[C@H](CO)[C@@H](O)[C@H]2O)n1,viral replication,"HEL cells, KOS ACV-resistant TK-deficient",2
O=c1[nH]c(=O)c2ncn(CCOCP(=O)(O)O)c2[nH]1,cytopathic effect,"HEL, KOS TK- acyclovir-resistant",23.7 ± 14
Cc1ccc(S(=O)(=O)N2C(=O)CSC2c2ccccc2F)cc1 (stereo not drawn),viral cytopathicity,"HEL, KOS",> 100
O=c1[nH]c(=O)c2ncn(C[C@H](CF)OCP(=O)(O)O)c2[nH]1,cytopathic effect,"HEL, KOS TK- acyclovir-resistant",> 313
Nc1nc2c(ncn2COCCO)c(=O)[nH]1,cytopathic effect,"HEL, KOS, TK-deficient, acyclovir-resistant",48.9 ± 57
Nc1ccn(C[C@@H](CO)OCP(=O)(O)O)c(=O)n1,viral replication,"HEL cells, KOS ACV-resistant TK-deficient",> 250
Cc1ccc(S(=O)(=O)N2C(=O)CSC2c2ccc(O)cc2)cc1 (stereo not drawn),viral cytopathicity,"HEL, KOS TK-deficient acyclovir-resistant",> 100
CC(C)OP(=O)(CO[C@H](CF)Cn1cnc(N)nc1=O)OC(C)C,cytopathic effect,"HEL, KOS, TK-deficient, acyclovir-resistant",32.5 ± 12.5
Cc1ccc(S(=O)(=O)N2C(=O)CSC2c2cccc(Br)c2)cc1 (stereo not drawn),viral cytopathicity,"HEL, KOS",> 100
O=c1[nH]c(=O)c2ncn(CC(CO)OCP(=O)(O)O)c2[nH]1 (racemic),cytopathic effect,"HEL, KOS TK- acyclovir-resistant",38

# Repeated from above:
SMILES,test,test system,EC50 [µM]
Nc1ncn(CC(O)C(F)(F)F)c(=O)n1 (stereo not drawn),cytopathic effect,"HEL, KOS, TK-deficient, acyclovir-resistant",> 446
NC(=O)c1ncn([C@@H]2O[C@H](CO)[C@@H](O)[C@H]2O)n1,viral replication,"HEL cells, KOS ACV-resistant TK-deficient",2
